Assay results pooled from the literature.
Protocols differ between the studies behind these lines. Numbers after ± are the reported error.

SMILES	tested on	assay	system	setting	scale	quantity	result
C[C@@H]1C(=O)O[C@@H](C)/C=C/C=C\[C@@H](C)[C@@H]2C=C[C@@H]3C[C@@]4(C)O[C@H]4[C@@H](C)[C@H]3[C@@H]2C(=O)C(Cl)(Cl)C1=O	Staphylococcus aureus	–	MSSA clinical isolate	resistant, PEN, ERY, CLI, TET, SXT	–	MIC	0.05 µg/mL
CC1(C)[C@H](NC(=O)/C(=N\OCC(=O)N2CCC(C(=O)O)CC2)c2csc(N)n2)C(=O)N1OS(=O)(=O)O	Proteus vulgaris	agar dilution	ATCC 29905, susceptible	–	–	MIC	0.125 µg/mL
CC(=O)NC[C@H]1CN(c2ccc(N3CCN(C(=O)CN)CC3)c(F)c2)C(=O)O1	Shigella flexneri	broth dilution	CGMCC 1.187	–	–	MIC	> 200 µM
COc1ccc(NC(=O)COc2cccc(OCC(C)C)c2)cc1	Nakaseomyces glabratus	microbial growth, broth dilution	MY1381	–	–	MIC	4 µg/mL
CCNC(=S)NN=Cc1c2ccccc2cc2ccccc12.Cc1ccc(C(C)C)cc1.[Cl-].[Cl-].[Ru+2]	Bacillus cereus	–	–	24 h, 37.0 °C	–	MIC	5 µM
Cc1c(CN(C)C(=O)/C=C/c2cnc3c(c2)CC(N)C(=O)N3)oc2ccccc12 (stereo not shown)	Escherichia coli	microbial growth, broth dilution	BAA2471	clinical isolate	–	MIC	4 µg/mL
CC1(C)[C@H](NC(=O)/C(=N\OCc2c(Cl)cccc2Cl)c2nsc(N)n2)C(=O)N1OS(=O)(=O)O	Shigella flexneri	agar dilution	ATCC 12022, susceptible	–	–	MIC	4 µg/mL
CC[C@H](C)[C@@H]1NC(=O)[C@@H]([C@@H](C)O)NC(=O)CNC(=O)[C@H](CC(=O)O)NC(=O)CNC(=O)[C@H](CC(=O)O)NC(=O)CNC(=O)[C@H]2CCCCN2C(=O)[C@@H](NC(=O)[C@H](CC(=O)O)NC(=O)/C=C/CCCCCCCCCC(C)C)CNC(=O)[C@@H]2CCCN2C1=O	Staphylococcus aureus	broth microdilution	MRSA USA300, Mueller-Hinton broth, Mg2+ 10 mg/L	16 h, 37 °C, together with: Ca2+ 2.5 mM	–	MIC	4 µg/mL
C[n+]1ccc(/C=N/NC(=O)N/N=C/c2cc[n+](C)c3ccccc23)c2ccccc21	hp2 hairpin duplex DNA	FRET melting	–	1 µM	–	ΔTm	1.4 ± 0.6 °C
CC1(C)[C@H](NC(=O)/C(=N\OCCN)c2nsc(N)n2)C(=O)N1OS(=O)(=O)O	Shigella flexneri	agar dilution	ATCC 12022, susceptible	–	–	MIC	8 µg/mL
Nc1ncc(-c2cc(-c3cnn(CC(F)(F)F)c3)ncc2F)nc1C(=O)NC1CNCC(F)C1 (stereo not shown)	AMPK-alpha1	KINOMEscan competition binding	–	1 µM	reference: DMSO control	remaining binding	39%
CC1C=CC=CC(C)C2C=CC3CC(C)(O)C(Cl)C(C)C3C2C(=O)C(Cl)(Cl)C(=O)C(C)C(=O)O1 (stereo not shown)	Staphylococcus aureus	–	MRSA clinical isolate	resistant, OXA, CIP, MXF, GEN, CLI	–	MIC	0.05 µg/mL
O=CCNCCOn1c(=O)n(OCCNCCO)c(=O)n(OCCNCCOn2c(=O)n(OCCNCCO)c(=O)n(OCCNCCO)c2=O)c1=O	Bacillus cereus	microbial growth, broth dilution	–	–	–	MIC	1 µg/mL
C=CCO/N=C(\C(=O)N[C@@H]1C(=O)N(OS(=O)(=O)O)C1(C)C)c1csc(N)n1	Shigella flexneri	agar dilution	ATCC 12022, susceptible	–	–	MIC	0.5 µg/mL
CO[C@H]1O[C@H](COC(c2ccccc2)(c2ccccc2)c2ccccc2)[C@@H](OS(=O)(=O)c2ccccc2)[C@H](OS(=O)(=O)c2ccccc2)[C@H]1OS(=O)(=O)c1ccccc1	Bacillus cereus	microbial growth, broth dilution	–	–	–	MIC	0.5 µg/mL
CC[n+]1cccc2cc(/C=N/NC(=O)c3cccc(C(=O)N/N=C/c4ccc5c(ccc[n+]5CC)c4)n3)ccc21	hp2 hairpin duplex DNA	FRET melting	–	1 µM, together with: ds26 10 µM	–	ΔTm	1.3 ± 0.2 °C

For quick reference, copied from above:
SMILES	tested on	assay	system	setting	scale	quantity	result
C[n+]1ccc(/C=N/NC(=O)N/N=C/c2cc[n+](C)c3ccccc23)c2ccccc21	hp2 hairpin duplex DNA	FRET melting	–	1 µM	–	ΔTm	1.4 ± 0.6 °C
CC1(C)[C@H](NC(=O)/C(=N\OCCN)c2nsc(N)n2)C(=O)N1OS(=O)(=O)O	Shigella flexneri	agar dilution	ATCC 12022, susceptible	–	–	MIC	8 µg/mL
